Assay results pooled from the literature.
Each numbered part is a random draw from the data of one study; scales do not carry over between parts. Changes are numbered by the printed parent chain.

Sample 1
Target: ABI1, truncated, D143A, DHFR fusion (Arabidopsis thaliana, UniProt P49597)
Method: DHFR PCA, dose-response
Matrix: yeast
Notes: Hill fit, mean, not affinity
With: (+)-ABA, dose series
Reading: lower = more sensitive
Parent: PYL1, truncated, DHFR fusion (Arabidopsis thaliana, UniProt Q8VZS8); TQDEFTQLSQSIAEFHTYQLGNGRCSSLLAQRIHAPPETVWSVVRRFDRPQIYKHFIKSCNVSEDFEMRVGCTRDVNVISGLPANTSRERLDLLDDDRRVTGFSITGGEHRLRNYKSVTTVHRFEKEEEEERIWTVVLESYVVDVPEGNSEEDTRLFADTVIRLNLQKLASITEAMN
Variant | ABA EC50 [µM]
D3I | 4.66
V43E | 390
R90F | 174
T6G | 1.71
T1I | 1.43
T39Y | 5.44
A175Y | 4.71
N22M | 2.13
K126F | 2.04
D97M | 4.26
G107S | 41.5
T73L | 2.26
R24I | 6.05
Q2T | 1.35
N61A | 1.93
D97W | 23.1
N149D | 130
G107L | 400
E128A | 2.21
E152S | 2.85
G81D | 160
S63Q | 1.81
L166C | 438
S80H | 113
E64P | 2.86

Sample 2
Target: RNA binding protein fox-1 homolog 2, RRM domain, GST-SBP tag (RBFOX2, Homo sapiens, UniProt O43251-10, residues 100-194)
Method: RNA Bind-n-Seq
Molecule type: RNA
Matrix: in vitro
Tested at: 365 nM
Notes: natural RNA segment, single round, ends assumed
Baseline: no-protein control
Reading: higher = stronger binding
Residues (chain): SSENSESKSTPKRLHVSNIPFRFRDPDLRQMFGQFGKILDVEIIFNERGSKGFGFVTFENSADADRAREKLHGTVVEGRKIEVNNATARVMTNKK
Strand | RBNS enrichment (R)
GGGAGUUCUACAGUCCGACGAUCUGUUUUGUAAGCCACAUUGGUUCCUGUGAGCAUCUGACCGUCCCCCAUCGAGUAUUUCCCCCGGAACUGGAGAUUCGGGCGUCAUUUGGCUGCUACUUGCUUAGUGACUCUGGAAUUCUCGGGUGCCAA | 0.564
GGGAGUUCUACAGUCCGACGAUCAGGGAACUAGAUAACAUACUUCUUACUUGUCUGUACAGUACCUUGUUGCAGAUGGGUGAUAUAUAAUGGUAAUAGAAUAGCACAGCCAGACUUGCUUCCUGCAUGGUAGGUGGAAUUCUCGGGUGCCAA | 2.19
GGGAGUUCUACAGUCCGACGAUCCGGCCCCCAGCACCAAAGCUUAGCCAAGGCAGAGGCGGAUGCCUCUGGAAAUCUAACCAAAGAGUCCCCAGACACCAACGGACCAAAGCUAACCGAGGAAGGAGAUGCCCUGGAAUUCUCGGGUGCCAA | 0.362
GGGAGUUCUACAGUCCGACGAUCUGAACUAUUCAUCAGUACUUUCUCCUCCCAUCCUAAGCUUCUCAUUUUAGGAACUGACAUGAUAAGGUGGUUCUUUCAUAACUCUAAUGCCAUCCAACAUAGCCCUGGGAUGGAAUUCUCGGGUGCCAA | 0.669
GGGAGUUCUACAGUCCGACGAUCUACUCCCCCAAGUUGGGGAAAGGAGGGGGAACCUACGAGAAAAACAGCUCAGGUUUUAUCACCGACUGGGAAUAGACAACCUCAAUGCUGAACCGCACUGGAGAAAAGGGUGGAAUUCUCGGGUGCCAA | 0.413
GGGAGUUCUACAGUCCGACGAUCCUUAACUCCUGGUGGAAGAGGGGCAGGCACGUUCGAAGCUUCUGGAUUCAUUUUUCCUCCACUUUCCUGAGAGACCAAAAGUGUUCCUUGAGAUGUCACCAUUUGUCUUUUGGAAUUCUCGGGUGCCAA | 1.58
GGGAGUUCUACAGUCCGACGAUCUGGCCCCACCCUGGGCCCUGGGCUGGAAUCAGGAAUAUUUUCCAAAGAGUGAUAGUCUUUUGCUUUUGGCAAAACUCUACUUAAUCCAAUGGGUUUUUCCCUGUACAGUAUGGAAUUCUCGGGUGCCAA | 0.3
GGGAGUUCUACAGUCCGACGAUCACAGAAUAAGCCAGAUCCUUGACUCUCAAGCCCCCAGUUUUUAAAAACAAGGUGUUCCUUGAUUUAUAAUCCUUCUUGUUUAUGCUGUGUUCUUUGAUUUAUAAUCCUUGUGGAAUUCUCGGGUGCCAA | 0.435
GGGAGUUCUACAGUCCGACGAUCUAAAAAUUGAAAGCUUCCAGAGAGCUGCCCUGGUCUCCCUUCCUCUCCUGUAAGAGUAUUAAUGUUGGGGCCCAAGGGCUCGAGGAAGGCAGCCUCGCUCACAGCCAGGCUGGAAUUCUCGGGUGCCAA | 0.159
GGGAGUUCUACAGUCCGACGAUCUAUGAGUUAAUGUGAAGUUGUAAAUGGGAAUCUAUAGCAAUGAUGUCUGUAUAAAUCUGUCUUAUCUAGAACUUGUGCUGUCAGGGCACUCUUCCUCACGCUGUUGUUACUGGAAUUCUCGGGUGCCAA | 0.758
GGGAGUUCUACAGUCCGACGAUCACUUGCACCUGAUCAAGAGCAGUGCUGCUCCAUUUGUUUUGCAAAGAUAUGUUUUCAUUUCCUGUAUGUUCCAUUCCCUCUGAAGUCCCUUGGCCUGAUUUUAUCCAUUUUGGAAUUCUCGGGUGCCAA | 0.791
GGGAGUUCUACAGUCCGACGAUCACUGACGCACGGCAGGAGAUUUUUGUUUUUGUUUUCCUGUAUAUGAAAUGUUUUUCAAACCAUCCUCUCCUCAGGCCACCACCCCUUACCCUAACCCAUCACGCCCUGGUUGGAAUUCUCGGGUGCCAA | 3.95

Sample 3
Target: Interferon regulatory factor 7, full length, phosphomimetic (IRF7, Homo sapiens, UniProt Q92985, residues 1-503, S101K/S471D/S472D/S475D/S476D/S477D/S483D/S484D/S487D)
Chain of UniProt Q92985 (whole entry, unmodified, looked up): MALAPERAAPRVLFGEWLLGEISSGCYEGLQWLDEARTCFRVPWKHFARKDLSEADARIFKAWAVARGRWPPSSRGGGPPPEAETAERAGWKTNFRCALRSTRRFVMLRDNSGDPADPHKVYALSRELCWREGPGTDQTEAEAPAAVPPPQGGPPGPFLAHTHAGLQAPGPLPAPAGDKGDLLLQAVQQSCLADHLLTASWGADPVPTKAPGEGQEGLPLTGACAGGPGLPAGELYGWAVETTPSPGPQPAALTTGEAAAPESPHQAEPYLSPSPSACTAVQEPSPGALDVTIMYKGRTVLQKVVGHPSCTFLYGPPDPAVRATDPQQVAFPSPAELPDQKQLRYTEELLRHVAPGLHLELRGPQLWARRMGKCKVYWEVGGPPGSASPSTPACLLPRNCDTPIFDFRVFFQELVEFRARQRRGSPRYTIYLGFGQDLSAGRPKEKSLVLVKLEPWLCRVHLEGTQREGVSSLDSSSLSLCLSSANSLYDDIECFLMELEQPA
Method: protein-binding microarray
Molecule type: double-stranded DNA, one strand shown
Matrix: in vitro
Tested at: 250 nM
Notes: 60-bp whole probe
With: salmon DNA 0.4 mg/ml
Baseline: random background probes
Reading: higher = stronger binding
All sequences stand within: GCCTAGCAC … GTCTTGATTCGCTTGACGCTGCTG
Strand | log fluorescence [z-score]
GAAGGTCTCGGTATCGGGACGTGCTAG | 1.56
CTTGCTTTCCTACTGAAATAGTGCTAG | 1.3
TGGAAACTCGTATGTGACCTTGTGCTA | -0.447
AACATACTGATTTCCACTTTGTGCTAG | 1.23
TTAGATCTCAGTTTAGATTAGTGCTAG | 0.882
TTAGAACTGGGGTTTCGATTTGTGCTA | 10.5
TTAGGAGTGCTTATCCTTTAGTGCTAG | -1.09
TTACATTTCGGGACTGGATTAGTGCTA | 0.825
TTAGGCCTGCTTTTCCTTTAGTGCTAG | 1.27
TTTGGTTTCCTTTCCCTTTAGTGCTAG | 6.09
ACATATATACAGAGATAGATGTGCTAG | 0.442
GGAAATTCTCATTTCCAATTGTGCTAG | 1.04
GACGATTTCAGATTCGAGACGTGCTAG | 1.43
ATGTAATTCCTGCCTGAGCTCGTGCTA | 0.0851
TCAGATTTCCCCACCATACTGTGCTAG | 1.05
GACGAACTCAGTTTCGAGACGTGCTAG | 4.28
GTAGGACTGCTACTGCTTTAGTGCTAG | -0.831
AACGGTATCGACTTTCGGGACGTGCTA | 1.5
GACGATCTCGGTATCGAGACGTGCTAG | 0.442
GACGATTTCGTGACTGGAGACGTGCTA | -0.0433
TTAGGTATCGACACGGGGTTAGTGCTA | -0.152
TCATTCCTCTTTCTCTGACTGTGCTAG | 2.84
TCACCTCTGCATTCCCTACTGTGCTAG | 0.435
GGCGAACTGAGTCTCGAGACGTGCTAG | -0.0432

Sample 4
Target: CCND3, cyclin fold, Cln2 fusion (human)
Method: yeast growth competition, sequencing
Matrix: yeast
Notes: weak parent motif
Baseline: not given
Reading: higher = stronger binding
Parent: PKN2 docking peptide (human); VSAVQKLDFSDTM; partner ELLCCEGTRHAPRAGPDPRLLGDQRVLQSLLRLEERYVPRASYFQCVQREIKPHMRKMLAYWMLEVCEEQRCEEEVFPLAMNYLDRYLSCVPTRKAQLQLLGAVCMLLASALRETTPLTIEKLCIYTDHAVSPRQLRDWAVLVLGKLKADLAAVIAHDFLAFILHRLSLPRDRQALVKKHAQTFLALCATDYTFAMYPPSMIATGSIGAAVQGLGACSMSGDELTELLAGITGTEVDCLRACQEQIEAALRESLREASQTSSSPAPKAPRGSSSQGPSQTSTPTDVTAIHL
Variant | normalised enrichment score
VSAVQKLDSSDTM [F9S] | 0.143
VSAVQKLDFLDTM [S10L] | 0.114
VSAVQKCDFSDTM [L7C] | 0.0617
VSAVQKPDFSDTM [L7P] | 0.0866
VSAVQKLDFSDTD [M13D] | 0.123
VSAVQKLDFSDGM [T12G] | 0.139
VSSVQKLDFSDTM [A3S] | 0.128
VSAVQKLDPSDTM [F9P] | 0.0493
VVAVQKLDFSDTM [S2V] | 0.113
VSAVQKLDFPDTM [S10P] | 0.163
VSAVQKLMFSDTM [D8M] | 0.206
VSAVQKLDFNDTM [S10N] | 0.0399
VSAVQKLDFKDTM [S10K] | 0.136
VSAVQKIDFSDTM [L7I] | 0.0328
VSAVQKLHFSDTM [D8H] | 0.11
VPAVQKLDFSDTM [S2P] | 0.0793
VSAVQKLDFSRTM [D11R] | 0.118
VSAVQKLDCSDTM [F9C] | 0.0714
VSAVQKLYFSDTM [D8Y] | 0.126
VSAVQKLDISDTM [F9I] | 0.113
VSAVQKLDFVDTM [S10V] | 0.154

A few entries again (sample 3):
Strand | log fluorescence [z-score]
GACGATTTCAGATTCGAGACGTGCTAG | 1.43
GACGATCTCGGTATCGAGACGTGCTAG | 0.442
TTAGGCCTGCTTTTCCTTTAGTGCTAG | 1.27
TTAGGAGTGCTTATCCTTTAGTGCTAG | -1.09
GTAGGACTGCTACTGCTTTAGTGCTAG | -0.831
TCAGATTTCCCCACCATACTGTGCTAG | 1.05
TCATTCCTCTTTCTCTGACTGTGCTAG | 2.84
TCACCTCTGCATTCCCTACTGTGCTAG | 0.435
TTAGAACTGGGGTTTCGATTTGTGCTA | 10.5
TGGAAACTCGTATGTGACCTTGTGCTA | -0.447
GGAAATTCTCATTTCCAATTGTGCTAG | 1.04
ACATATATACAGAGATAGATGTGCTAG | 0.442
AACGGTATCGACTTTCGGGACGTGCTA | 1.5
GACGAACTCAGTTTCGAGACGTGCTAG | 4.28
